Measured values of several laboratories.
Numbered parts are unrelated; each lists some results of a single study.

Series 1
Target: Interferon regulatory factor 5, full length, phosphomimetic (IRF5, Homo sapiens, UniProt Q13568-2, residues 1-514, S451D/S453D/S456D/S462D)
Method: protein-binding microarray
Molecule type: double-stranded DNA, one strand shown
Matrix: in vitro
Tested at: 940 nM top
Notes: 60-bp whole probe
Added: salmon DNA 0.4 mg/ml
Baseline: random background probes
Direction: higher = stronger binding
All sequences stand within: GCCTAGCAC … GTCTTGATTCGCTTGACGCTGCTG
Oligonucleotide | fitted relative affinity [z-score]
TCATGTCTGGGTATTTTACTGTGCTAG | -0.0317
GCAACATTCACCATGGCTAGGTGCTAG | 0.02
TTAGGTATCAGTATCGATTAGTGCTAG | 6.76
TTAGATATCGGGTATAGATTAGTGCTA | 0.238
TCAGGTTTCGGGTTTCGGTTAGTGCTA | 10.1

Series 2
Target: RNA binding protein fox-1 homolog 2, RRM domain, GST-SBP tag (RBFOX2, Homo sapiens, UniProt O43251-10, residues 100-194)
Method: RNA Bind-n-Seq
Molecule type: RNA
Matrix: in vitro
Tested at: 365 nM
Notes: natural RNA segment, single round, ends assumed
Baseline: no-protein control
Direction: higher = stronger binding
Oligonucleotide | RBNS enrichment (R)
GGGAGUUCUACAGUCCGACGAUCUGUUAAACUGGUCUUUGAGAAAAGAAUAGUGCAGAUAAGAGCAGCCAAGGACUUCAAAGCUUGUUGAUCACUGCACUCUGGAUAAAACCCUUGGCUUCCUGUUCAAAUAGUGGAAUUCUCGGGUGCCAA | 0.692
GGGAGUUCUACAGUCCGACGAUCUGGUUACCUACUGAGUAGGCUGCAGUUUUUGUAUGUUAUGAACAUGAAGUUCAUUAUUUUGUGGUUUUAUUUUACUUUGUACUUGUGUUUGCUUAAACAAAGUAACCUGUUGGAAUUCUCGGGUGCCAA | 1.08
GGGAGUUCUACAGUCCGACGAUCUGCAAUAUUAUAAAAGAAGUAAUCUUAUUUUAGCUCAUUCUGUGACAUGUGCGACUCUUAAGAAAGCCAUACUUAAUGGUGGUGGUUUUUUUUAGAUCUUAUAUUGUGUUUGGAAUUCUCGGGUGCCAA | 0.617
GGGAGUUCUACAGUCCGACGAUCAGAGCAUAGCUAAUGUACCUGGAAUCUGAGCAGCCCUGGUCUCAGCAGAGCCUGAAAUUAAACUCAUUUGUUUCCAGCAUCCGUGUGUUUGCACAAAGGAUUUGACGCCAUGGAAUUCUCGGGUGCCAA | 0.81

Series 3
Target: Sal-like protein 4, full length isoform A (SALL4, Homo sapiens, UniProt Q9UJQ4, residues 1-1053)
UniProt Q9UJQ4, sequence (whole entry, looked up): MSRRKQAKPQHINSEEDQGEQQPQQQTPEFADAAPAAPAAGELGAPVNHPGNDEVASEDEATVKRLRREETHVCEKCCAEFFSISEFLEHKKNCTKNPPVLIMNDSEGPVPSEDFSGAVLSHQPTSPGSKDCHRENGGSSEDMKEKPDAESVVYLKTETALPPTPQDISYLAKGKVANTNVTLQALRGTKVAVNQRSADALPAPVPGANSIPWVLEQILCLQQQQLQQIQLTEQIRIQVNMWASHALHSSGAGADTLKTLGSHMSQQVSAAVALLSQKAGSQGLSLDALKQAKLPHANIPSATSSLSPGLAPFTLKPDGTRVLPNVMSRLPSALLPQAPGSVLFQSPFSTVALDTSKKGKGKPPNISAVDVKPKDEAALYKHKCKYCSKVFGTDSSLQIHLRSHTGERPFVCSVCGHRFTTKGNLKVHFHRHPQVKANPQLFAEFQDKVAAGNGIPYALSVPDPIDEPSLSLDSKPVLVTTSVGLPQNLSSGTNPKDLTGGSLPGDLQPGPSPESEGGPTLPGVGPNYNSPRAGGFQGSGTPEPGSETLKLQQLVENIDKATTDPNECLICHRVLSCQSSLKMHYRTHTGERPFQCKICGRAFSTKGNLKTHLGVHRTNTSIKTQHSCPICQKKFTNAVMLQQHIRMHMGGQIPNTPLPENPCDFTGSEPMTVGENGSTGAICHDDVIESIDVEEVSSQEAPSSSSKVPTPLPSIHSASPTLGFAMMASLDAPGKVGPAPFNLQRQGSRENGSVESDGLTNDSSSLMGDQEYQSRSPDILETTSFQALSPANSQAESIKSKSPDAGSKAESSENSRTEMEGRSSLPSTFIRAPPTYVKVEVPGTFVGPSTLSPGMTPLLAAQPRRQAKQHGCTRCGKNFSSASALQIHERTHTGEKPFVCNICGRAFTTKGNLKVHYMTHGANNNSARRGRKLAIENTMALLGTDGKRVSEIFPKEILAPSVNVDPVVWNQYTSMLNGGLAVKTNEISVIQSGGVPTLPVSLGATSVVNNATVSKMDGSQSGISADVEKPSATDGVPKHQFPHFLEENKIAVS
Method: universal PBM
Molecule type: double-stranded DNA, one strand shown
Matrix: in vitro
Tested at: 600 nM
Notes: 8-mer, flanks averaged, mean of replicates
Direction: higher = stronger binding
Oligonucleotide | E-score
ATTCGGAG | -0.0677
GTGGGTTA | 0.103
AGTGACGA | 0.0898
CTCAGGAA | -0.156
GCGACGAA | -0.109

Single results of other studies
Substance | target | assay | test system | setting | how to read | measurement | result
PhoQ, residues 284 288 289 292 302 303 SASVAL | PhoP, residues 12 14 15 18 19 DLLYY (Escherichia coli, UniProt P23836) | Sort-seq, refers to: YFP reporter | E. coli | PhoQ-PhoP variant library, added: 10 µM Mg2+ | baseline: high Mg2+ state, higher = stronger signaling | fold induction | 5.44

A few entries again (series 3):
Oligonucleotide | E-score
GTGGGTTA | 0.103
